{"data": "Results collected from several papers", "ribH": "6,7-dimethyl-8-ribityllumazine synthase (ribH, Mycobacterium tuberculosis, UniProt P9WHE9)", "B1": "Pcf11 CID D117A; chain DTEVIVKDFNSILEELTFNSRPIITTLTKLAEENISCAQYFVDAIESRIEKCMPKQKLYAFYALDSICKNVGSPYTIYFSRNLFNLYKRTYLLVDNTTRTKLINMFKLWLNPNATGLPLFEGSALEKIEQFLIKAS", "note": "Numbers after ± are the reported error.", "UniProt P9WHE9, sequence (whole entry, looked up)": "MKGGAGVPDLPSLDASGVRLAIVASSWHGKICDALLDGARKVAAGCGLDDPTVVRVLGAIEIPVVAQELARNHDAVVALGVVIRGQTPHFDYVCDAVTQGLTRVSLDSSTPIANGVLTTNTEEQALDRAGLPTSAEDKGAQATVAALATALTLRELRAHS", "UniProt Q9H4A6, sequence (whole entry, looked up)": "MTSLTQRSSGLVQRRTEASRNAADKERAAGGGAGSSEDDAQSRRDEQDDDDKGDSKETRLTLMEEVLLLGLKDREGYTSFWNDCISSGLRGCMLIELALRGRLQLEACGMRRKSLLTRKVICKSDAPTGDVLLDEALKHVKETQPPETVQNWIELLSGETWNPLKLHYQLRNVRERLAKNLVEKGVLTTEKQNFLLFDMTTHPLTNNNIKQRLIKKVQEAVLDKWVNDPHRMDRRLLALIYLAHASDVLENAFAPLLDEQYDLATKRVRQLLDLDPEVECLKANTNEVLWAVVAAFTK", "UniProt O58586, sequence (whole entry, looked up)": "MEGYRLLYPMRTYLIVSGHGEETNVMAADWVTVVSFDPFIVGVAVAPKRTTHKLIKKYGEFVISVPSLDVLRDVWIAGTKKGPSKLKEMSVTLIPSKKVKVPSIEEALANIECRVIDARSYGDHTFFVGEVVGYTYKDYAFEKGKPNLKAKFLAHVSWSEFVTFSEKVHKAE", "UniProt P56450, sequence (whole entry, looked up)": "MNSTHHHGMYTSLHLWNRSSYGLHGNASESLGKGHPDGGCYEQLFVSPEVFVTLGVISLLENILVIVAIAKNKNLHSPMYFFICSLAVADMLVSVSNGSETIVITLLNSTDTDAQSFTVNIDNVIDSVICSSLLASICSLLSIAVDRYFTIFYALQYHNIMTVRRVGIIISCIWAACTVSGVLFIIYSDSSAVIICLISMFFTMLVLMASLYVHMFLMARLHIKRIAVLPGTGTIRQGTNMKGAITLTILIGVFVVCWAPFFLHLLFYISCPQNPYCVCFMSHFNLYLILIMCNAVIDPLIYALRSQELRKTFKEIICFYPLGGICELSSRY", "UniProt P61823, sequence (whole entry, unmodified, looked up)": "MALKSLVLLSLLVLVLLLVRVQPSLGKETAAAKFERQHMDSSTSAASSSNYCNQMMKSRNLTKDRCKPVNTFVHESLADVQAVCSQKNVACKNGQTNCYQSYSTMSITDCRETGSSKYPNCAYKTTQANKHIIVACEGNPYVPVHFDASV", "UniProt P41143, sequence (whole entry, looked up)": "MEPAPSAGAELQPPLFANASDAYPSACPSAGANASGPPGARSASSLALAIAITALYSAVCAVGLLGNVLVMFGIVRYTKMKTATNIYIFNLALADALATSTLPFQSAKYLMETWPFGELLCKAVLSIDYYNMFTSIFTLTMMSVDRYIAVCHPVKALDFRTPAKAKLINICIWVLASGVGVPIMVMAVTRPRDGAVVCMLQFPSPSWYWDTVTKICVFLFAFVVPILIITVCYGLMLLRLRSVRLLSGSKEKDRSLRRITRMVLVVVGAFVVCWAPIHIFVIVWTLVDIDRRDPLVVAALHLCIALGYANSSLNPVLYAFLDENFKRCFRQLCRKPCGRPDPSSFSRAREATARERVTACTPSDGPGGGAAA", "UniProt P00520, sequence (whole entry, looked up)": "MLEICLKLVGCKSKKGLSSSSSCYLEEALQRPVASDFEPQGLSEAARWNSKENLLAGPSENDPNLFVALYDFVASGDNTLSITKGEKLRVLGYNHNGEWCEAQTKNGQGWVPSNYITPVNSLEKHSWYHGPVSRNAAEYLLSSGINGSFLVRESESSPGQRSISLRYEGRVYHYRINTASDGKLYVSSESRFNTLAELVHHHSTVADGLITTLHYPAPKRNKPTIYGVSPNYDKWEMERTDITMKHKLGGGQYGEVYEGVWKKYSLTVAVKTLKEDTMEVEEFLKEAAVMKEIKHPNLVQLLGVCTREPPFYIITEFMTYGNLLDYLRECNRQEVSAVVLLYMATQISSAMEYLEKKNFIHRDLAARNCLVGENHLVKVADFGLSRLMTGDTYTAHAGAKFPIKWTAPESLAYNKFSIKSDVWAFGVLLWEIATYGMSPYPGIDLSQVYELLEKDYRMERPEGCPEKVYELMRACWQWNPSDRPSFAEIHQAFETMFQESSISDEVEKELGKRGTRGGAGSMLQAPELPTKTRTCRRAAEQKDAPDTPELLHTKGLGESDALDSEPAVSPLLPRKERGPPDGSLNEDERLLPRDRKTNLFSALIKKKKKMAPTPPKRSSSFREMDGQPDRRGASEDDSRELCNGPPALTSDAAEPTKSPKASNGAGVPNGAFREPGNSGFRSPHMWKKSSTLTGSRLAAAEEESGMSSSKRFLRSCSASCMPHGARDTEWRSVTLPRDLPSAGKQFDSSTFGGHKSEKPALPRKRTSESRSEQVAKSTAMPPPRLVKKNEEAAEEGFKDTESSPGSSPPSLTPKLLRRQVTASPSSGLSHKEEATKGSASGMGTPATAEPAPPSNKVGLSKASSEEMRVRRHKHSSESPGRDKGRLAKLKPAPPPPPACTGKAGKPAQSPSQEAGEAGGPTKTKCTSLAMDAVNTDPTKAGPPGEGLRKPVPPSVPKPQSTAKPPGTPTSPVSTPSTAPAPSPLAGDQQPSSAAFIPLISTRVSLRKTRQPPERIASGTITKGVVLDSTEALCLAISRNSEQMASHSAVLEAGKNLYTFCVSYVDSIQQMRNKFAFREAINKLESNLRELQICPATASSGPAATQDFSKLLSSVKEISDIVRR", "UniProt O54982, sequence (whole entry, looked up)": "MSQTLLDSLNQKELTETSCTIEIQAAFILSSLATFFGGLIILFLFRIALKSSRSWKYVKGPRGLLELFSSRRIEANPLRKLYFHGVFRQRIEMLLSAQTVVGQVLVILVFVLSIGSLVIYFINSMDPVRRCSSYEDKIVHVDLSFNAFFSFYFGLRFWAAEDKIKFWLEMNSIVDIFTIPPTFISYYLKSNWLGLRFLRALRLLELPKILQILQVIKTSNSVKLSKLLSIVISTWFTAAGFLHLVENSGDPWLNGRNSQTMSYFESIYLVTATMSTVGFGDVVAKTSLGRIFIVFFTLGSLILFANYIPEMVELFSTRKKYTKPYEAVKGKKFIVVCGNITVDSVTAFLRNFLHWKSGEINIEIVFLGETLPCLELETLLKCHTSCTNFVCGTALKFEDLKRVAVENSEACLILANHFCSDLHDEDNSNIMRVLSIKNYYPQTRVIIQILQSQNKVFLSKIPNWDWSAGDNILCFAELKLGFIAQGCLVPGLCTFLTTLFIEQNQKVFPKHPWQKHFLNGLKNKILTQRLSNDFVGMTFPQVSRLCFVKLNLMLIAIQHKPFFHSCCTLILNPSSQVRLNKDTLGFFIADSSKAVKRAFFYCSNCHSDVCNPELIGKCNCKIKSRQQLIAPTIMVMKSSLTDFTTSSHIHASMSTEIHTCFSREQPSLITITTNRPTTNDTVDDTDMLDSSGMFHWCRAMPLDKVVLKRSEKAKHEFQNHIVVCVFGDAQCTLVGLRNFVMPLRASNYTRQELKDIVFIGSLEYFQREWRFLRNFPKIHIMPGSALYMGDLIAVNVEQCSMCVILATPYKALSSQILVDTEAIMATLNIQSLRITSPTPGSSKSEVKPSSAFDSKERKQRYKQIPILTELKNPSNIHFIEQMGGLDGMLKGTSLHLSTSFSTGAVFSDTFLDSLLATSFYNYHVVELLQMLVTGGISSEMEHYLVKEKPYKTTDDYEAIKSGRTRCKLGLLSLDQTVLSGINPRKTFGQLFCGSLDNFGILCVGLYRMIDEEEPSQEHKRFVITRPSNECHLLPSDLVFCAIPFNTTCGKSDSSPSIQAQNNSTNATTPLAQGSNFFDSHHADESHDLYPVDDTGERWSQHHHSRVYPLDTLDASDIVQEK"}
{"Molecule": "CC[N+](CC)(CC)CC", "target or system": "Kcnu1, Slo1 N-terminal chimera (Mus musculus, UniProt O54982)", "test": "ion current, blocker, cytosolic application", "conditions": "pH 8.5, open-channel block, with: Ca2+ 0", "measurement": "Kd", "value": "910 ± 2770 µM"}
{"Molecule": "CCCC[C@H](NC(=O)[C@H](C)NC(=O)[C@H](Cc1ccc(O)cc1)NC(=O)[C@H](CO)NC(C)=O)C(=O)N[C@@H](CCC(=O)O)C(=O)N[C@@H](Cc1c[nH]cn1)C(=O)N[C@H](Cc1ccccc1)C(=O)N[C@@H](CCCNC(=N)N)C(=O)N[C@@H](Cc1c[nH]c2ccccc12)C(=O)NCC(=O)N[C@@H](CCCCN)C(=O)N1CCC[C@H]1C(=O)N[C@H](C(N)=O)C(C)C", "target or system": "Melanocortin receptor 4 (Mus musculus, UniProt P56450)", "measurement": "EC50", "value": "0.00027 ± 1e-05 µM"}
{"Molecule": "CSCC[C@@H]1NC(=O)[C@H](CCC(=O)O)NC(=O)[C@H](CCC(=O)O)NC(=O)[C@@H](NC(=O)[C@H](CC(=O)O)NC(=O)[C@H](CC(=O)O)NC(=O)[C@H](CC(C)C)NC(=O)[C@@H](NC(=O)[C@H](CO)NC(=O)CNC(=O)[C@H](CO)NC(=O)CNC(=O)[C@H](CCCCN)NC(=O)[C@H](CC(=O)O)NC(=O)[C@H](CC(=O)O)NC(=O)[C@H](CC(=O)O)NC(=O)[C@H](CC(=O)O)NC(=O)[C@H](CCCCN)NC(=O)[C@H](Cc2ccc(O)cc2)NC(=O)[C@H](CC(=O)O)NC(=O)[C@@H](N)CCSC)[C@@H](C)O)Cc2ccc(cc2)OCCSC[C@@H](C(=O)N[C@@H](CO)C(=O)N[C@@H](CC(=O)O)C(=O)N[C@H](C(=O)O)[C@@H](C)O)NC(=O)CNC(=O)[C@H](CC(=O)O)NC1=O", "target or system": "Sonic hedgehog protein (Homo sapiens, UniProt Q15465)", "test": "binding, ELISA, immobilised Shh", "conditions": "FLAG-tagged macrocycle", "measurement": "Kd", "value": "3.6 µM"}
{"Molecule": "COc1cccc(/C=C/c2[nH]c(=O)[nH]c(=O)c2[N+](=O)[O-])c1OC", "target or system": "ribH", "test": "enzyme activity, inhibitor", "conditions": "pH 7.0", "measurement": "Ki", "value": "9.6 ± 4.5 µM"}
{"Molecule": "CCCCCCCCCCCCCCCC(=O)OC[C@H](COP(=O)(O)O[C@@H]1[C@H](O)[C@H](OP(=O)(O)O)[C@@H](O)[C@H](O)[C@H]1O)OC(=O)CCCCCCCCCCCCCCC", "target or system": "Golgi phosphoprotein 3 (GOLPH3, Homo sapiens, UniProt Q9H4A6)", "test": "surface plasmon resonance", "test system": "DOPC vesicles 3 mol% lipid", "conditions": "pH 7.5, 25 °C", "measurement": "Kd", "value": "10.2 ± 0.5 µM"}
{"Molecule": "NC(=O)C1=CN([C@@H]2O[C@H](COP(=O)(O)OP(=O)(O)OC[C@H]3O[C@@H](n4cnc5c(N)ncnc54)[C@H](OP(=O)(O)O)[C@@H]3O)[C@@H](O)[C@H]2O)C=CC1", "target or system": "Uncharacterized protein PH0856 (Pyrococcus horikoshii, UniProt O58586)", "test": "substrate, stopped-flow reductive half-reaction", "measurement": "Kd", "value": "114 µM"}
{"Molecule": "COc1cccc(-c2cc3ccccc3[nH]2)c1", "target or system": "RAW264.7", "test": "NO release, inhibitor, Griess", "conditions": "50 µM, 20 h, LPS-stimulated", "measurement": "inhibition", "value": "50.7%"}
{"Molecule": "CC(C)[C@@H](CN1CCC(c2ccsc2)CC1)NC(=O)[C@H]1Cc2ccc(O)cc2CN1", "target or system": "Delta-type opioid receptor (OPRD1, Homo sapiens, UniProt P41143)", "test": "antagonist", "conditions": "with: DPDPE", "measurement": "Kb", "value": "0.118 ± 0.027 µM"}
{"Molecule": "O=P(O)(O)O[C@@H]1[C@H](O)[C@H](O)[C@@H](OP(=O)(O)O)[C@H](OP(=O)(O)O)[C@H]1O", "target or system": "Tyrosine-protein kinase ABL1, SH2 domain (Abl1, Mus musculus, UniProt P00520)", "test": "HSQC NMR titration", "conditions": "SH2 domain, 135 mM KCl", "measurement": "Kd", "value": "500 ± 30 µM"}
{"Molecule": "B1 (Pcf11 CID D117A)", "target or system": "Saccharomyces cerevisiae CTD-binding protein", "test": "fluorescence anisotropy competition", "conditions": "pH 7.4, second binding event, with: four-heptad Ser2P CTD peptide", "measurement": "Kd", "value": "430 µM"}
{"Molecule": "O=c1[nH]c(/C=C/c2ccc(Cl)cc2)c([N+](=O)[O-])c(=O)[nH]1", "target or system": "ribH", "test": "enzyme activity, inhibitor", "conditions": "pH 7.0", "measurement": "Ki", "value": "45 ± 13 µM"}
{"Molecule": "c1cncc(-c2cc3ccccc3[nH]2)c1", "target or system": "RAW264.7", "test": "NO release, inhibitor, Griess", "conditions": "50 µM, 20 h, LPS-stimulated", "measurement": "inhibition", "value": "46.6%"}
{"Molecule": "CC(=O)N[C@H]1[C@H](O[C@H]2[C@@H](O)[C@@H](CO)O[C@H](O[C@@H]3[C@H](O)[C@@H](O)[C@H](O[C@H]4[C@H](O)[C@@H](O)[C@H](O)O[C@@H]4CO)O[C@@H]3CO)[C@@H]2O)O[C@H](CO)[C@H](O)[C@@H]1O[C@@H]1O[C@H](CO)[C@H](O)[C@H](O)[C@H]1O[C@@H]1O[C@@H](C)[C@@H](O)[C@@H](O)[C@@H]1O", "target or system": "Ribonuclease pancreatic (RNASE1, Bos taurus, UniProt P61823, A45C)", "test": "binding", "conditions": "pH 5", "measurement": "Kd", "value": "17 µM"}
{"Molecule": "COc1cc(/C=C/c2[nH]c(=O)[nH]c(=O)c2[N+](=O)[O-])cc(OC)c1OC", "target or system": "ribH", "test": "enzyme activity, inhibitor", "conditions": "pH 7.0", "measurement": "Ki", "value": "17 ± 4 µM"}
{"Molecule": "N=C(N)NCCC[C@@H]1NC(=O)[C@H](CCCNC(=N)N)NC(=O)[C@H](CCCNC(=N)N)NC(=O)[C@H](Cc2ccc3ccccc3c2)NC(=O)[C@H](Cc2ccccc2)NC(=O)[C@H](CCC(N)=O)NC(=O)[C@H](CCCNC(=N)N)NC1=O", "test": "lipid binding, fluorescence polarization", "test system": "small unilamellar vesicles PC/PE/PI/BMP", "conditions": "2 h, room temperature, EC50 as lipid concentration", "measurement": "EC50", "value": "166 ± 12 µM"}
{"note": "For quick reference, copied from above:"}
{"Molecule": "CC[N+](CC)(CC)CC", "target or system": "Kcnu1, Slo1 N-terminal chimera (Mus musculus, UniProt O54982)", "test": "ion current, blocker, cytosolic application", "conditions": "pH 8.5, open-channel block, with: Ca2+ 0", "measurement": "Kd", "value": "910 ± 2770 µM"}
{"Molecule": "CC(=O)N[C@H]1[C@H](O[C@H]2[C@@H](O)[C@@H](CO)O[C@H](O[C@@H]3[C@H](O)[C@@H](O)[C@H](O[C@H]4[C@H](O)[C@@H](O)[C@H](O)O[C@@H]4CO)O[C@@H]3CO)[C@@H]2O)O[C@H](CO)[C@H](O)[C@@H]1O[C@@H]1O[C@H](CO)[C@H](O)[C@H](O)[C@H]1O[C@@H]1O[C@@H](C)[C@@H](O)[C@@H](O)[C@@H]1O", "target or system": "Ribonuclease pancreatic (RNASE1, Bos taurus, UniProt P61823, A45C)", "test": "binding", "conditions": "pH 5", "measurement": "Kd", "value": "17 µM"}
